# Published values gathered from unrelated publications.
# Each line is one published result; not all experiments were run side by side. ± marks the error that the study gave.
Compound,test,system,conditions,Cmax
CCCCCCCOc1ccc(CCC(N)(CO)CO)cc1C(F)(F)F.Cl,,"healthy men, plasma","oral, 0.5 mg, day 21",3.56 ng/mL
CC[C@H](Nc1ncnc2[nH]cnc12)c1oc2ccccc2c(=O)c1-c1cccc(F)c1,,"patients, Cohort-1, plasma","oral, 400 mg twice daily, with: romidepsin 12 mg/m2",1540 ± 1610 ng/mL
CC[C@H](C)CCCCC(=O)N[C@@H](CCN)C(=O)N[C@H](C(=O)N[C@@H](CCN)C(=O)N[C@H]1CCNC(=O)[C@H]([C@@H](C)O)NC(=O)[C@H](CCN)NC(=O)[C@H](CCN)NC(=O)[C@H](CC(C)C)NC(=O)[C@@H](Cc2ccccc2)NC(=O)[C@H](CCN)NC1=O)[C@@H](C)O,,"mild renal impairment, plasma","intravenous infusion, 0.75 mg/kg, geometric least squares mean",3580 ng/mL
C[C@@H](N)C1CCN(S(=O)(=O)c2cccc3cnccc23)CC1,,"healthy volunteers, fasted, plasma","oral, 150 mg",34.9 ng/mL
CCc1nc(C(N)=O)c(Nc2ccc(N3CCC(N4CCN(C)CC4)CC3)c(OC)c2)nc1NC1CCOCC1,,"patients, plasma","oral, 300 mg once daily, cycle 1 day 15, median",1260 ng/mL
CS(=O)(=O)c1ccc([C@@H](O)[C@@H](CF)NC(=O)C(Cl)Cl)cc1,,"chicken (Arbor Acres), plasma","oral, 20 mg/kg, with: quercetin 60 mg/kg pretreatment",10000 ± 710 ng/mL
CCNC(=O)[C@@H]1CCCN1C(=O)[C@H](CCCNC(=N)N)NC(=O)[C@H](CC(C)C)NC(=O)[C@@H](CC(C)C)NC(=O)[C@H](Cc1ccc(O)cc1)NC(=O)[C@H](CO)NC(=O)[C@H](Cc1c[nH]c2ccccc12)NC(=O)[C@H](Cc1c[nH]cn1)NC(=O)[C@@H]1CCC(=O)N1,,healthy female volunteers,"oral, 4 mg single dose, fasted",10.2 ± 9.6 ng/mL
CCNC(=O)[C@@H]1CCCN1C(=O)[C@H](CCCNC(=N)N)NC(=O)[C@H](CC(C)C)NC(=O)[C@@H](CC(C)C)NC(=O)[C@H](Cc1ccc(O)cc1)NC(=O)[C@H](CO)NC(=O)[C@H](Cc1c[nH]c2ccccc12)NC(=O)[C@H](Cc1c[nH]cn1)NC(=O)[C@@H]1CCC(=O)N1,,"healthy premenopausal women, plasma","oral, 4 mg once daily, day 1",3.7 ± 3.2 ng/mL
O=C(c1cccnc1-c1ccncc1)N1CCC(O)(Cc2ccccc2)CC1,,"healthy Japanese adults, plasma","oral, 200 mg twice daily, day 14",980 ng/mL
C[C@H](NC(=O)/C(C#N)=C/c1cccc(Br)n1)c1ccccc1,LC-MS/MS,"patients, plasma","oral, 2 mg/kg, cycle 1 day 1",31 ng/mL
Oc1ccc([C@@H](O)c2cc(-c3ncnc4cc(N5CCOCC5)ccc34)c(F)cc2Cl)nn1,geometric mean,"healthy volunteers, plasma","oral, 100 mg, fasted oral suspension",170 ng/mL
CC(=O)N[C@H]1CC[C@H](NC(=O)CN2CCN(c3nncc(-c4ccc(C)cc4)n3)CC2)CC1,,"men aged 18-55 years, plasma","oral, 100 mg single dose, study",1190 ng/mL
CC(C)c1nc(N(C)S(C)(=O)=O)nc(-c2ccc(F)cc2)c1/C=C/[C@@H](O)C[C@@H](O)CC(=O)O,,"healthy volunteers, plasma","oral, 10 mg single dose, day 1, given alone, BCRP probe",3.6 ng/mL
CN[C@H](CC(C)C)C(=O)N[C@H]1C(=O)N[C@@H](CC(N)=O)C(=O)N[C@H]2C(=O)N[C@H]3C(=O)N[C@H](C(=O)N[C@H](C(=O)O)c4cc(O)cc(O)c4-c4cc3ccc4O)[C@H](O)c3ccc(c(Cl)c3)Oc3cc2cc(c3O[C@@H]2O[C@H](CO)[C@@H](O)[C@H](O)[C@H]2O[C@H]2C[C@](C)(N)[C@H](O)[C@H](C)O2)Oc2ccc(cc2Cl)[C@H]1O,,"guinea pig, tissue cage fluid","intraperitoneal, 15 mg/kg single",7500 ng/mL
C[C@H]1[C@H](OC(=O)CCC(=O)O)O[C@@H]2O[C@@]3(C)CC[C@H]4[C@H](C)CC[C@@H]1[C@@]24OO3,,"healthy volunteers, plasma","oral, dose not given, fixed-dose combination",277 ng/mL
O=C(O)c1cc(O)c(O)c(O)c1,,"chicken Ross broiler, male, serum","oral, 0.49 mg/kg",510 ± 260 nM
CCCS(=O)(=O)N[C@H]1C[C@@H](N(C)c2ncnc3[nH]ccc23)C1,,"healthy volunteers, plasma, total","oral, 100 mg single dose, alone",420 ng/mL
N[C@@H]1c2ccccc2OC12CCN(c1cnc3c(N4CCCc5ncccc54)n[nH]c3n1)CC2,,"advanced metastatic solid tumour patients, plasma","oral, 20 mg once daily, cycle 1 day 15, geometric mean",451 ng/mL
C[C@H]1[C@H]2N(C(=O)CN(C)N2C(=O)NCc2ccccc2)[C@@H](Cc2ccc(OP(=O)(O)O)cc2)C(=O)N1Cc1cccc2cccnc12,,"patients, plasma","intravenous infusion, 280 mg/m2 over 4 h, median",1950 ng/mL
Cc1ccc2c(c1)C(=O)[C@]1(O)CCN(c3ccc4nc(C)ccc4c3)C1=N2.Cl,,plasma,"oral, 10 mg/kg",720 ± 210 nM
C#C[C@]1(O)CC[C@H]2[C@@H]3CCC4=CC(=O)CC[C@@H]4[C@H]3CC[C@@]21C,radioimmunoassay,"HIV-infected women, no protease inhibitor, serum","oral, 0.35 mg, steady state, geometric mean",2.09 ng/mL
C[C@@](Cc1ccc(O)c(O)c1)(NN)C(=O)O,,"male Parkinson's disease patients, plasma","oral, dose not given, median",45.3 ng/mL
CNC(=O)c1cc(Oc2ccc(NC(=O)N(c3ccc(Cl)c(C(F)(F)F)c3)[C@@H]3O[C@H](C(=O)O)[C@@H](O)[C@H](O)[C@H]3O)cc2)ccn1,,"patients, plasma","oral, 400 mg twice daily, steady state, geometric mean, with: rifampin 600 mg oral",5370 ng/mL
COc1nnc2ccc(N3CCC(c4ccc(OCCN5CCN(C)C(=O)[C@H]5C)cc4)CC3)nn12,,"patients, plasma","oral, 10 mg twice daily, multiple dose, monotherapy",48.1 nM
C[C@H]1CN(C(=O)CC#N)[C@]12CCN(c1ncnc3[nH]ccc13)C2,,"healthy adults, plasma","oral, 1.5 mg single dose, median",9.38 ng/mL
O=C([O-])CCCCCCCNC(=O)c1ccccc1O.[Na+],,healthy male and female subjects,"dose not given, without semaglutide, geometric mean",1580 ng/mL
C[C@@H]1CCO[C@H]2Cn3cc(C(=O)NCc4ccc(F)cc4F)c(=O)c(O)c3C(=O)N12,"population PK, post-hoc","children, 10 to <14 kg, plasma","oral, 20 mg dispersible tablet, steady state, geometric mean",5580 ng/mL
CCc1nc2c(C)cc(N3CCN(CC(=O)N4CC(O)C4)CC3)cn2c1N(C)c1nc(-c2ccc(F)cc2)c(C#N)s1,,"healthy volunteers, fed, plasma","oral, 600 mg single dose, day 1, suspension",9800 ng/mL
OC[C@H]1O[C@@H](c2ccc(F)c(Cc3cc4ccccc4s3)c2)[C@H](O)[C@@H](O)[C@@H]1O,,"Japanese type 2 diabetes patients, plasma","oral, 25 mg/day, day 1",626 ± 128 ng/mL
CC(=O)Nc1ccc(C[C@H](NC(=O)[C@H](CO)NC(=O)[C@@H](Cc2cccnc2)NC(=O)[C@@H](Cc2ccc(Cl)cc2)NC(=O)[C@@H](Cc2ccc3ccccc3c2)NC(C)=O)C(=O)N[C@H](Cc2ccc(NC(C)=O)cc2)C(=O)N[C@@H](CC(C)C)C(=O)N[C@@H](CCCCNC(C)C)C(=O)N2CCC[C@H]2C(=O)N[C@H](C)C(N)=O)cc1,,"healthy men, fasted, serum","oral, 10 mg single dose",15.3 ± 10.3 ng/mL
COc1c(O)cc(C(=O)O)cc1O,,"broiler chickens, serum","oral, in feed, 2000 mg/kg feed, 24 h, wheat diet with tannins",130 ± 50 nM
CCCCCCCCCCCCCCCC(=O)N[C@@H](CCC(=O)NCCCC[C@@H]1NC(=O)[C@H]([C@@H](C)CC)NC(=O)[C@@H](NC(=O)[C@@H]2CCCN2C(=O)[C@H](Cc2ccccc2)NC(=O)[C@H](Cc2c[nH]cn2)NC(=O)[C@@H](NC(=O)[C@H](CC(=O)O)NC(=O)CC(C)C)[C@@H](C)O)CSSC[C@@H](C(=O)N[C@@H](CCCCN)C(N)=O)NC(=O)CNC(=O)[C@H](CCCCN)NC(=O)[C@H](CO)NC(=O)[C@H](CCCNC(=N)N)NC(=O)[C@@H]2CCCN2C(=O)[C@H](CCC(=O)O)NC(=O)[C@H](Cc2ccccc2)NC1=O)C(=O)O,,"healthy volunteers, plasma","subcutaneous, 30 mg single, lyophilised formulation",287 ± 90 ng/mL
C=CC(=O)NC1CCN(c2ncc3ncnc(Nc4ccc(Oc5ccc6c(c5)ncn6C)c(C)c4)c3n2)CC1,refers to: total radioactivity,"healthy male volunteers, whole blood","oral solution, 60 mg, 14C-labelled, geometric mean",1110 nM
Cc1ccc(NC(=O)c2ccc(CN3CCN(C)CC3)cc2)cc1Nc1nccc(-c2cncc(-c3oncc3C)c2)n1,,"Parkinson's disease patients, plasma","oral, 50 mg/day, 7 days, steady state",2560 ± 564 ng/mL
OC[C@H]1O[C@@H](c2cc(Cc3ccc(C4CC4)cc3)c(Cl)c3c2CCO3)[C@H](O)[C@@H](O)[C@@H]1O,,"healthy Korean adults, fasted, plasma","oral, 0.3 mg single dose, fixed-dose combination tablet, with: co-administered drug 50 mg",4.74 ± 1.2 ng/mL
CC(=O)O[C@@]12CO[C@@H]1C[C@H](O)[C@@]1(C)C(=O)[C@H](O)C3=C(C)[C@@H](OC(=O)[C@H](O)[C@@H](NC(=O)OC(C)(C)C)c4ccccc4)C[C@@](O)([C@@H](OC(=O)c4ccccc4)[C@H]21)C3(C)C,,"patients, plasma","intravenous, 75 mg/m^2, without co-administered drug",799 ng/mL

# Repeated from above:
Compound,test,system,conditions,Cmax
C[C@@H]1CCO[C@H]2Cn3cc(C(=O)NCc4ccc(F)cc4F)c(=O)c(O)c3C(=O)N12,"population PK, post-hoc","children, 10 to <14 kg, plasma","oral, 20 mg dispersible tablet, steady state, geometric mean",5580 ng/mL
C[C@H]1CN(C(=O)CC#N)[C@]12CCN(c1ncnc3[nH]ccc13)C2,,"healthy adults, plasma","oral, 1.5 mg single dose, median",9.38 ng/mL
CN[C@H](CC(C)C)C(=O)N[C@H]1C(=O)N[C@@H](CC(N)=O)C(=O)N[C@H]2C(=O)N[C@H]3C(=O)N[C@H](C(=O)N[C@H](C(=O)O)c4cc(O)cc(O)c4-c4cc3ccc4O)[C@H](O)c3ccc(c(Cl)c3)Oc3cc2cc(c3O[C@@H]2O[C@H](CO)[C@@H](O)[C@H](O)[C@H]2O[C@H]2C[C@](C)(N)[C@H](O)[C@H](C)O2)Oc2ccc(cc2Cl)[C@H]1O,,"guinea pig, tissue cage fluid","intraperitoneal, 15 mg/kg single",7500 ng/mL
